Published values of several laboratories.
Lines come from different studies, so protocols differ. ± marks the error that the study gave.

CC(=O)NCCN(CC(=O)NCCN(CC(=O)NCCN(CC(=O)NCCC(N)=O)C(=O)C[C@@H](N)Cc1ccccc1)C(=O)C[C@@H](N)CCCNC(=N)N)C(=O)C[C@@H](N)CCCNC(=N)N  binding enthalpy ΔH° (HIV-1 TAR RNA; concentration not given, 25 °C): -8.99 ± 0.598 kcal/mol
CNCc1ccc2c(c1)C[C@H](CNC(=N)N)[C@H]2NC(=O)C(=O)Nc1ccc(Cl)c(F)c1  IC80 (Human immunodeficiency virus 1; viral infection, Env pseudovirus; TZM-bl, 6535.3 clade B): 832 nM
CC(=O)NCCN(CCC(=O)NCCN(CCC(=O)NCCN(CCC(=O)NCCC(N)=O)C(=O)[C@@H](N)CCCNC(=N)N)C(=O)[C@@H](N)Cc1ccccc1)C(=O)[C@@H](N)Cc1ccccc1  binding entropy term TΔS° (HIV-1 TAR RNA; concentration not given, 25 °C): 1.17 ± 0.12 kcal/mol
F[P-](F)(F)(F)(F)F.OC(Cn1cncn1)(Cn1cc(-[c-]2cccc2)nn1)c1ccc(F)cc1F.[Co+3].c1cc[cH-]c1 (racemic)  motility inhibition (Trichuris muris; Worminator; adult males and females; 100 µM, day 2): 28%
CCCCCCCCCCCCCCCC(=O)N[C@@H](CCC(=O)NCCOCCOCCC(=O)NCCOCCOCCC(=O)NCCCC[C@H](NC(=O)[C@H](CC(=O)O)NC(=O)[C@H](CC(C)C)NC(=O)[C@H](Cc1ccc(O)cc1)NC(=O)[C@H](CCCCN)NC(=O)[C@H](CO)NC(=O)[C@H](Cc1ccc(O)cc1)NC(=O)[C@H](CC(=O)O)NC(=O)[C@H](CO)NC(=O)[C@@H](NC(=O)[C@H](Cc1ccccc1)NC(=O)[C@@H](NC(=O)CNC(=O)[C@H](CCC(N)=O)NC(=O)[C@@H](CO)NC(=O)[C@@H](N)Cc1c[nH]cn1)[C@@H](C)O)[C@@H](C)O)C(=O)N[C@@H](CCCNC(=N)N)C(=O)N[C@@H](CCCNC(=N)N)C(=O)N[C@@H](C)C(=O)N[C@@H](CCC(N)=O)C(=O)N[C@@H](CC(=O)O)C(=O)N[C@@H](Cc1ccccc1)C(=O)N[C@H](C(=O)N[C@@H](CCC(N)=O)C(=O)N[C@@H](Cc1c[nH]c2ccccc12)C(=O)N[C@@H](CC(C)C)C(=O)N[C@@H](CC(C)C)C(=O)N[C@@H](CC(N)=O)C(=O)N[C@H](C(=O)NCC(=O)NCC(=O)N1CCC[C@H]1C(=O)N[C@@H](CO)C(=O)N[C@@H](CO)C(=O)NCC(=O)N[C@@H](C)C(=O)N1CCC[C@H]1C(=O)N1CCC[C@H]1C(=O)N1CCC[C@H]1C(=O)N[C@@H](CO)C(N)=O)[C@@H](C)O)C(C)C)C(=O)O  Cmax (rhesus monkey, male, plasma; subcutaneous, 300 µg/kg, day 28, toxicokinetics, mean): 590 ng/mL
CCCOC(=O)N1c2cc(CNC)ccc2[C@H](NC(=O)C(=O)Nc2ccc(Cl)c(F)c2)[C@H]1CNC(=N)N  IC80 (Human immunodeficiency virus 1; viral infection, Env pseudovirus; TZM-bl, CAP210.2.00.E8 clade C): 2500 nM
C[C@H](Nc1ncnc(N)c1C#N)c1c(-c2ccccc2)[nH]c2c(Cl)cccc2c1=O  minimum effective concentration (primary CLL cells; AKT phosphorylation, inhibitor; 30 min, added: anti-IgM; any decrease): ≥ 100 nM

For quick reference, copied from above:
F[P-](F)(F)(F)(F)F.OC(Cn1cncn1)(Cn1cc(-[c-]2cccc2)nn1)c1ccc(F)cc1F.[Co+3].c1cc[cH-]c1 (racemic)  motility inhibition (Trichuris muris; Worminator; adult males and females; 100 µM, day 2): 28%
